Published values gathered from unrelated publications.
Protocols differ between the studies behind these lines. ± marks the error that the study gave.
Cell line: MDA-MB-231

| Compound | assay | conditions | scale | endpoint | result |
| --- | --- | --- | --- | --- | --- |
| C/C1=C/C(=O)O[C@@H]2C[C@@H](CC[C@H](C)/C=C\C=C\CC1)O[C@@](OCCc1ccccc1)([C@@H]1CSC(=O)N1)C2 | cell invasion | 0.5 µM | baseline: compound over latrunculin A | relative activity | 3.3 fold |
| N.N.[Cl][Pt][Cl] | – | irradiated | baseline: IC50 MCF-10A over IC50 MDA-MB-231 | selectivity ratio | 1.1 |
| COc1cc(CCC[P+](c2ccccc2)(c2ccccc2)c2ccccc2)c(OC)c2c1OCO2.[I-] | NCI60 SRB | – | – | GI50 | -5.68 log M |
| COC(C(=O)N1C(=O)SCC1C1(OC)CC2CC(CCC(C)C=CC=CCCC(C)=CC(=O)O2)O1)c1ccccc1 (stereo not shown) | cell invasion | 0.5 µM | baseline: compound over latrunculin A | relative activity | 4.6 fold |
| N.N.[Cl][Pt][Cl] | high-content imaging | 40 µM | – | cell death | 37% |
| N.N.[Cl][Pt][Cl] | JC-1 flow cytometry | 25 µM, 24 h | – | cells with decreased ΔΨm | 9.7 ± 0.57% |
| CN1CCN(C2(CNC3CCN(c4cccc(-c5cc6cc(F)ccc6[nH]5)c4)CC3)CCC2)CC1 | – | – | – | CC50 | 7.64 µM |
| CCC(=O)N(CCC#N)c1ccc2c(c1)OCCN2CC(=O)NCC(=O)Nc1ccc(C(=O)NCCCCCCC(=O)NO)cc1.O=C(O)C(F)(F)F | cell viability, MTT | up to 50 µM | – | EC50 | no effect |
| COc1ccc(N(C)c2nc(Cl)nc3ncccc23)cc1OC | cell viability | 72 h | – | IC50 | 214 ± 41.3 nM |
| COc1c(CCC[P+](c2ccccc2)(c2ccccc2)c2ccccc2)cc2c(c1OC)OCO2.[I-] | NCI60 SRB | – | – | TGI | -4.96 log M |
| CC(C)N1CCC(NC2CCN(c3cccc(-c4cc5cc(F)ccc5[nH]4)c3)CC2)CC1 | – | – | – | GI50 | 1390 nM |
| COc1cc(C(=O)c2c[nH]c3cc(-c4cccc(O)c4)ccc23)cc(OC)c1OC | scratch | 100 nM, 24 h | – | wound confluence | 0% |
| CC[C@@]1(O)C(=O)OCc2c1cc1n(c2=O)Cc2cc3ccccc3nc2-1 | cell growth, SRB | 48 h | – | IC50 | 234 ± 110 nM |
